Measurements of several laboratories.
Each numbered part is a random draw from the data of one study; scales do not carry over between parts.

Block 1 — technique: universal PBM; molecule type: double-stranded DNA, one strand shown; matrix: in vitro; tested at: 600 nM; direction: higher = stronger binding
Target: Sal-like protein 4, full length isoform A (SALL4, Homo sapiens, UniProt Q9UJQ4, residues 1-1053)
Chain of UniProt Q9UJQ4 (whole entry, looked up): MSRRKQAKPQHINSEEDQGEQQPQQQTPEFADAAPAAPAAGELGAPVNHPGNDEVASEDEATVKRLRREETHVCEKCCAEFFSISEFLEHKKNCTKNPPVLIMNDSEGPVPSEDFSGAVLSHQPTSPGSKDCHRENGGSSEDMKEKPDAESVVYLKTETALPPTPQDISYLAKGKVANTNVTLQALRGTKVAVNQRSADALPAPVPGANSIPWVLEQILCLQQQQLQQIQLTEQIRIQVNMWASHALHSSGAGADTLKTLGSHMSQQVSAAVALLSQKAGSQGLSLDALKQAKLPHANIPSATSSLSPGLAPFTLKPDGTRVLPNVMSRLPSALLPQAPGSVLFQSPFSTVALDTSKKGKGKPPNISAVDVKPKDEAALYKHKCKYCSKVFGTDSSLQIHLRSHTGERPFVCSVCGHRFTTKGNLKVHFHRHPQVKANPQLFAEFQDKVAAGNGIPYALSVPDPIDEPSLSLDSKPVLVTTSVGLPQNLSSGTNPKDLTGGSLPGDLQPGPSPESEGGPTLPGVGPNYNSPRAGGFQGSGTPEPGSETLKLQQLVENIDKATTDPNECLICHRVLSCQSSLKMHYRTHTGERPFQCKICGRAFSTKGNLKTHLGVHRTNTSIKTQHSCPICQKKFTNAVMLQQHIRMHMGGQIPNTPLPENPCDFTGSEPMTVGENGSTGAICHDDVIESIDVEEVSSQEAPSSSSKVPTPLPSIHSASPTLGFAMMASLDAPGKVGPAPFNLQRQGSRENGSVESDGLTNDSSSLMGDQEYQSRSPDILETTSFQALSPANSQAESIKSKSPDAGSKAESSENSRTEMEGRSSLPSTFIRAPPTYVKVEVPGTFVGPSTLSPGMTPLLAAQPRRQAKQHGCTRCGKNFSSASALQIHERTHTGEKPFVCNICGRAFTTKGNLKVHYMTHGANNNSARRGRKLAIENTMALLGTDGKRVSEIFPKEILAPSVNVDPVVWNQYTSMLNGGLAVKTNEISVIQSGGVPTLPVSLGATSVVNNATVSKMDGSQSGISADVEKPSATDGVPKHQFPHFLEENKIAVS
Setting: 8-mer, flanks averaged, mean of replicates
| Oligonucleotide | E-score |
| --- | --- |
| CTCGAGTA | 0.0167 |
| AACATTCT | 0.232 |
| GGGAACAC | -0.229 |
| CATACGGC | -0.0674 |
| GTAGTCGA | 0.00737 |
| GCACAAAC | 0.0154 |
| ATCATTAG | 0.261 |
| AAACAATT | 0.265 |
| AGTTCTAG | -0.117 |
| ACACTGAG | 0.00483 |
| AAAGAACA | 0.22 |
| CCATCGTC | -0.178 |
| ACTAGCCT | -0.00704 |
| ACCAACAT | 0.21 |
| CAGGCGAG | -0.244 |
| CCCAGATA | -0.0352 |
| CAGATAGA | 0.0664 |
| GGAAGTCA | -0.0698 |

Block 2 — technique: competition protein-binding microarray; molecule type: double-stranded DNA, one strand shown; matrix: in vitro; tested at: 2 µM; together with: Cbf1 competitor, 0.05 µM; direction: higher = stronger binding
Target: Phosphate system positive regulatory protein PHO4, full length, GST-tagged (PHO4, Saccharomyces cerevisiae, UniProt P07270, residues 1-312)
Setting: whole 60-bp probe, lowest competitor level
Target sequence (chain): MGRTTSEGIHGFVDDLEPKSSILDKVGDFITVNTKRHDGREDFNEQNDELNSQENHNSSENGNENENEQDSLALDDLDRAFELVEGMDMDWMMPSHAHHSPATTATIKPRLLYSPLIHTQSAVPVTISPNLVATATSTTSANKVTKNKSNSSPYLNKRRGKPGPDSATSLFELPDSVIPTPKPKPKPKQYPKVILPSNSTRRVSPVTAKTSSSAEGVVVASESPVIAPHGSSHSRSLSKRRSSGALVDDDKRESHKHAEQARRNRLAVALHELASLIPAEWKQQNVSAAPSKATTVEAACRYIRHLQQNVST
| Oligonucleotide | fluorescence intensity |
| --- | --- |
| CTTCTGTAAATTTGCTTCGTGGGTGGACGCGCCCCGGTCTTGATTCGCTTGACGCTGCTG | 6420 a.u. |
| CTAACCGGCCACCGTCACATGATTCGATTGTGTAGCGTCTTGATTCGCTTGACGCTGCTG | 7360 a.u. |
| AAATTACTAAGTTGTCACTAGACTTACCCCGTATGAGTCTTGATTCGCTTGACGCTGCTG | 2940 a.u. |
| TATGCTGTGTTTGACCAGGCGAACAACATTGAGAGAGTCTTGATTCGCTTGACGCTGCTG | 3540 a.u. |
| TGCGCAACAACTTGTCACGTGGGTGTATGTCTAGAAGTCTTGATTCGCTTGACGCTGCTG | 17300 a.u. |
| AGTTCCGCTGTGCTGCATGTGTGTGTATGCCAATATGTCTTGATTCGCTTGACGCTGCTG | 9150 a.u. |
| CATACCCAACCTTGTCACACTACTTAAGATATTTGTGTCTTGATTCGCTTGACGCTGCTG | 4860 a.u. |
| CCTCCTCTTTTTTTTCACGTGCTTTGCTGATGTAAGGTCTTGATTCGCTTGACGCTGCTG | 15100 a.u. |
| CTAACGAAGGTTTGCTCCGTGGGTGACAAGCCAAGTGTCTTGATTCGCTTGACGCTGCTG | 5670 a.u. |
| CTTCTGTAAATTTGAAACGTGGGTGGACGCGCCCCGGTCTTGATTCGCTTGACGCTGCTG | 13200 a.u. |
| GAGTGGTAGGGAAAGCACGTGTGGATTATTTACGATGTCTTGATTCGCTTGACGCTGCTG | 17500 a.u. |
| TTGTCGGCATAACCGCACATGGACGTCTATATGACCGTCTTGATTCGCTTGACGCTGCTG | 9200 a.u. |
| CGTCCTAGTGATTGTGCCGTGGGTGCCATGAGGAAGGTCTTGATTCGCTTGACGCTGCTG | 8090 a.u. |
| ATTTTTTTCTTGAAACACGTGAAGCCGAGGAGACCAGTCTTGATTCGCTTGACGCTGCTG | 14900 a.u. |
| GTTCCCATTGATTAGCACGTGAAAATCTTAGCGAGTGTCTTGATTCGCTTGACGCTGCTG | 16600 a.u. |
| ATTCAACTTTGCTTCCACGTTAGTAGACAGTGGACCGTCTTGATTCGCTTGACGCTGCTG | 7050 a.u. |
| TGCGCAACAACTTGTCACCCCACTTTATGTCTAGAAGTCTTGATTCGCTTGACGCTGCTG | 3480 a.u. |
| TGCGCAACAACTTGCATAGTGGGTGTATGTCTAGAAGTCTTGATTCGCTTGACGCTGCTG | 5430 a.u. |
| AAAGCGGTAATTTGTCATGTGGGTGCAGATATCTATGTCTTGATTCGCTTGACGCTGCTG | 9810 a.u. |
| CTGAACTCGCCGCCTCACCTGCCACTACGTCTTCCGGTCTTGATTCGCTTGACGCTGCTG | 3960 a.u. |
| AAAGCGGTAATTTGTCACAATACTTCACATATCTATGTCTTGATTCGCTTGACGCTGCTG | 3350 a.u. |

Block 3 — technique: RNA Bind-n-Seq; molecule type: RNA; matrix: in vitro; tested at: 365 nM; reference: no-protein control; direction: higher = stronger binding
Target: RNA binding protein fox-1 homolog 2, RRM domain, GST-SBP tag (RBFOX2, Homo sapiens, UniProt O43251-10, residues 100-194)
Setting: natural RNA segment, single round, ends assumed
Construct (chain): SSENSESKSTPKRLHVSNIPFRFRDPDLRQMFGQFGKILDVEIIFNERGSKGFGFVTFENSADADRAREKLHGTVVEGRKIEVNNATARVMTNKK
| Oligonucleotide | RBNS enrichment (R) |
| --- | --- |
| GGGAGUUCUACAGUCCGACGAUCAAAACUGAGCUAUGUUUGAACAAAGAUGUCGUGCAAACUGUACUGUGAACAACAGUUGGUUUAAAAUAUGAGGGGCAAGGAGGAGGAUGCAUUUCAAAAGCUUGAUUGAUUGGAAUUCUCGGGUGCCAA | 12.2 |
| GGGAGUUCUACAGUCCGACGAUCAGGAGAUGGAGAGAAAUACAUCGAUUGAGGCAUUAGAUGGCUCCCAUUGCACUGCUCGCAGCUCCCUGCUCAGACUUCACCCCAAGCUGAAGCCUCCAGAGGGACAGCAGUGGAAUUCUCGGGUGCCAA | 0.339 |
| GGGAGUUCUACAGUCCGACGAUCCUCAUUUACAAACUUAGGUUGGGAGCUUGGGUUUCCUGUCUCACUUCCAAAAGCCUUCAAGAUGGCAGCAGAUGGACACACCCUCUCAUUUCUUGUGUCUUGUCUGUCAGUGGAAUUCUCGGGUGCCAA | 0.275 |
| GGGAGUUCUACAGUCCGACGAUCGGGUUCGCCUCCCCGAGGCUCCGUUUCCAAGCGAUUCAACGUUAACUACCUUUUUCUGUAUGCUUUCCAAAGUGUUUCCCUCAAUGUUUGAUUAAAACAUUUGCUCAUAGUGGAAUUCUCGGGUGCCAA | 0.387 |
| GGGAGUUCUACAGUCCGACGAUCAGCUACGUCCCCCUUAGAAGGAUCACUGCAGCAGGUCACCGAGCAGGAGUCCCUCUGAGCGUCCCUUCUGUCUCGUUCUGCCCUAGCUGGCAGCAUAUGAACCAGGCAUGUGGAAUUCUCGGGUGCCAA | 0.221 |
| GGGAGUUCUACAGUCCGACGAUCGAGCCCUUCCAUACUCUGUGACUCUCAGUGUGAAUUGGAAUGCAAUUCUUUCCCUAAAAUGUGUGGAAAAGGCCACAUCAUGAGGACUGGUGUGAGUUGGGGUAGGGUCCUGGAAUUCUCGGGUGCCAA | 1.23 |
| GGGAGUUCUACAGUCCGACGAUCAAACAUACGUUCUUUUCAAGACUUCCUCAUGAAUCUCUCAAUUAUAGGAAAAGUUAUUGUGAUAAAAUAGGAACAGCUGAAAGAUUGAUUAAUGAACUAUUGUUAAUUCUUGGAAUUCUCGGGUGCCAA | 0.433 |
| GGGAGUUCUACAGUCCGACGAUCACUGUGUGUCUCCCUCAUGGAGUGCGAGGAUUUGAGCAUUUUCUGCUUCUUUAUGCUUUUUCAUUUAAAACAUGUUUUAAAGCAUAUUCUCACUGAGUCUAUUGUUUGUCUGGAAUUCUCGGGUGCCAA | 0.427 |
| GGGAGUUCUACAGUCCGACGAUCACCCAUCACUUUAAAUCCUUAAAGUUAGAAGCUAGCAAAUUUUCUGUAGUGCAGAACGUUUAUUGCUGUUUUUGUGUUUGAAUAGUAUAAUGUUUGAUGCCUCUCUUCUGUGGAAUUCUCGGGUGCCAA | 0.282 |
| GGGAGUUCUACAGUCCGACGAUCCAUGCCCCUGCUCACCUCUGCCAGGUCCCAGCUUGACCUACUGGGUCAAGGCCAGCCUCGGUGAUGGCCUGAUCCCAGGUACAAGGCCUUGUGAACUGAGUUUGAAACAUUGGAAUUCUCGGGUGCCAA | 0.545 |
| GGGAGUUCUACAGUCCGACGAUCUGGGCAAGUGGUUCUCAGCCAGGUUUCCGAUUGUCGAUUCAAGGAAGCAAAAGUAAUUUUUCUUGACAUUUGAGGACCUUCCUGAGGCUUCUAAAGUGUUCAUCCUGAUCUGGAAUUCUCGGGUGCCAA | 0.299 |
| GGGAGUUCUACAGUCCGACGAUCGAACUAGGACUUUCCUCUGUGAAGAGGAUGCCUCUGAAGAAAUUUUAAACUGGUGAUUUUGGUUGCACUGCUCACUUUAAGAGUUAACAUGCUCACUUGUUAGUAUUUCUUGGAAUUCUCGGGUGCCAA | 0.904 |

Block 4 — organism: Saccharomyces cerevisiae; effect on: binding; technique: yeast competitive growth sequencing; molecule type: peptide; strain: cyclin B3-Cln2 fusion strain; setting: peptide tiling library; direction: direction not given
| Molecule | enrichment score |
| --- | --- |
| SMTDFYHSKRRLIFSK | -1.99 |
| PAKRRLELGE | 0.421 |
| VLVRTSACRSLFGPVD | -0.68 |
| PARRRLRLSVDEVSSP | -0.719 |
| PKNAKRNLSSEFAN | -0.268 |
| TARRIFQEPTEPKTKA | -0.803 |
| KPKPVKPVTFSTGIKM | 0.878 |
| SSEVARHLLFQSHM | -1.05 |
| IVLICAKRSLCAAFSV | -1.71 |

Excerpt of the above (block 2):
| Oligonucleotide | fluorescence intensity |
| --- | --- |
| CTAACCGGCCACCGTCACATGATTCGATTGTGTAGCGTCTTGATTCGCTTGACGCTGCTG | 7360 a.u. |
| CTTCTGTAAATTTGAAACGTGGGTGGACGCGCCCCGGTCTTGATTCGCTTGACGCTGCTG | 13200 a.u. |
| CTAACGAAGGTTTGCTCCGTGGGTGACAAGCCAAGTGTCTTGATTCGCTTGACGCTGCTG | 5670 a.u. |
| CCTCCTCTTTTTTTTCACGTGCTTTGCTGATGTAAGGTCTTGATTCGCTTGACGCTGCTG | 15100 a.u. |
| CTTCTGTAAATTTGCTTCGTGGGTGGACGCGCCCCGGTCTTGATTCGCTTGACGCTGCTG | 6420 a.u. |
| AGTTCCGCTGTGCTGCATGTGTGTGTATGCCAATATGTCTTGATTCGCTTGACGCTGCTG | 9150 a.u. |
| TGCGCAACAACTTGTCACGTGGGTGTATGTCTAGAAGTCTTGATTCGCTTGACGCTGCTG | 17300 a.u. |
| AAATTACTAAGTTGTCACTAGACTTACCCCGTATGAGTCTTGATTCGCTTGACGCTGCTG | 2940 a.u. |
| GTTCCCATTGATTAGCACGTGAAAATCTTAGCGAGTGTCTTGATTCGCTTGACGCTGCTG | 16600 a.u. |
| ATTTTTTTCTTGAAACACGTGAAGCCGAGGAGACCAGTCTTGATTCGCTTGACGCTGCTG | 14900 a.u. |
